Results collected from several papers.
Each numbered part is a random draw from the data of one study; scales do not carry over between parts.

Block 1
Target: Interferon regulatory factor 1, DNA-binding domain (IRF1, Homo sapiens, UniProt P10914, residues 1-114)
Technique: protein-binding microarray
Form: hairpin DNA
Sample: in vitro
Tested at: not given
Notes: whole hairpin DNA, median over replicate spots
Reference: not given
Reading: higher = stronger binding
Target sequence (chain): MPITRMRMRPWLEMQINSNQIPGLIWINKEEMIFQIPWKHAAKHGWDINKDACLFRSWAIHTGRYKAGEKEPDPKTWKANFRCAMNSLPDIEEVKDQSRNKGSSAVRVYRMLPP
Sequence | median fluorescence [a.u.]
GAGGCCCGAAAGTGAAAGGCCTCCTGGCCTTTCACTTTCGGGCCTCACAC (5mC at 29) | 1080
GAGGCCCGAAAGTGAACGGCCTCCTGGCCGTTCACTTTCGGGCCTCACAC (5mC at 29) | 554
GAGGCCCGAAAGCCGAACGCCTCCTGGCGTTCGGCTTTCGGGCCTCACAC (5mC at 32) | 508
GAGGCCCGAAATTGAAACGCCTCCTGGCGTTTCAATTTCGGGCCTCACAC | 610
GAGGCCCGAAAGTGAAATGCCTCCTGGCATTTCACTTTCGGGCCTCACAC | 706
GAGGCCCGAAAGCGAAACGCCTCCTGGCGTTTCGCTTTCGGGCCTCACAC (5mC at 39) | 1380
GAGGCCCCAAAGTGAAACGCCTCCTGGCGTTTCACTTTGGGGCCTCACAC (5mC at 8) | 972
GAGGCCCGAAAGTGAAACGCCTCCTGGCGTTTCACTTTCGGGCCTCACAC (5mC at 35) | 1460

Block 2
Target: Eukaryotic initiation factor 4A-I (EIF4A1, Homo sapiens, UniProt P60842, residues 1-406, full length assumed)
Chain of UniProt P60842 (whole entry, looked up): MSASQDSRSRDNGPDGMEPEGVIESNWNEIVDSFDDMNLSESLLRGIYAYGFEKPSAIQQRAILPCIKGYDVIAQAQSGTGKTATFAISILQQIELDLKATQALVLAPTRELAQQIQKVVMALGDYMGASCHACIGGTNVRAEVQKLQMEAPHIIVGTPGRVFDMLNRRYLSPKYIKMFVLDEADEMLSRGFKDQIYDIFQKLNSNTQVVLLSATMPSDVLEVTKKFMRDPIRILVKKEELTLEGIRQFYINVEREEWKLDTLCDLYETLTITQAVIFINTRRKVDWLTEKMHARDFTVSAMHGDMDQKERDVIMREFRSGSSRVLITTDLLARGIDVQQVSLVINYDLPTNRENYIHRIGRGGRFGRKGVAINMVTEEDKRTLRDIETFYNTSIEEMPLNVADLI
Technique: RNA Bind-n-Seq
Form: RNA
Sample: in vitro
Tested at: 90 pmol
Notes: 4-mer, random 30-nt RNA, single round
With: 3 µM DMDA-PatA, 2 mM ADP, 2 mM phosphate
Reference: input library
Reading: higher = stronger binding
Sequence | 4-mer enrichment [fold]
GCCC | 0.626
ACUA | 0.665
CGGU | 0.925
AGGG | 1.25
UCCG | 0.604
ACGA | 0.72
UAAA | 1.08
UUGA | 1.01

Block 3
Target: Centromere-binding protein 1, full length, His-tagged (CBF1, Saccharomyces cerevisiae, UniProt P17106, residues 1-351)
Chain of UniProt P17106 (whole entry, looked up): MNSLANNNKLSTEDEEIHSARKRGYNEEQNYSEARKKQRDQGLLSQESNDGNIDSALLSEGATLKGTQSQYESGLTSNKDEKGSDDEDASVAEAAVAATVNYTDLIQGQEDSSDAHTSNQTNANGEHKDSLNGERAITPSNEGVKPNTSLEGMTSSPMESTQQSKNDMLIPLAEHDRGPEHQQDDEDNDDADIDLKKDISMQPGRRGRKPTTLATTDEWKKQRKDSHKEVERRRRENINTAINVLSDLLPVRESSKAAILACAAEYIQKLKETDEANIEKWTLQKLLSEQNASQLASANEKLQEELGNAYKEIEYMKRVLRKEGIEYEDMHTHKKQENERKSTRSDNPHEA
Technique: competition protein-binding microarray
Form: double-stranded DNA, one strand shown
Sample: in vitro
Tested at: 2 µM
Notes: whole 60-bp probe, lowest competitor level
With: Pho4 competitor, 0.05 µM
Reading: higher = stronger binding
Sequence | fluorescence intensity
CATACCCAACCTTGCGCTGTGGGTGAAGATATTTGTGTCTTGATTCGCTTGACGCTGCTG | 68.4 a.u.
CTTCTGTAAATTTTTCACGTGGGGTGAAGCGCCCCGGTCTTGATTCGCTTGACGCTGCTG | 613 a.u.
TTTTGAATTCACCATCACGTTATTACCAGAACAATTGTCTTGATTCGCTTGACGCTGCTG | 678 a.u.
GATCCTGAGAGGTCCCATGTGCTTTCCAATAACAGTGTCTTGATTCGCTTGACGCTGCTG | 131 a.u.
TGCGCAACAACTTGAGCGGTGGGTGTATGTCTAGAAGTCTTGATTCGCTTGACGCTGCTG | 66.4 a.u.
GTCTTGTCTCATTTTCACGTGAAATTCCCCACTTCAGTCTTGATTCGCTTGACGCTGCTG | 680 a.u.
CTTCTGTAAATTTGAACCGTGGGTGGACGCGCCCCGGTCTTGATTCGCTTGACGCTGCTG | 66.7 a.u.
TGCGCAACAACTTTTCACGTGCCTTTATGTCTAGAAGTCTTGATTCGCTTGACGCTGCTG | 1550 a.u.

Mixed results
Molecule | target | assay | test system | conditions | measurement | result
STYQFSLMQ | HLA class I histocompatibility antigen, A alpha chain, allele A*25:01 (Homo sapiens, UniProt P04439) | peptide-MHC binding | peptide | concentration not given | binding | inactive

Repeated from above (block 2):
Sequence | 4-mer enrichment [fold]
GCCC | 0.626
ACUA | 0.665
CGGU | 0.925
AGGG | 1.25
